# Measurements from different studies.
# Compare with care: the assays were run in different laboratories. ± marks the error that the study gave.
Structure (SMILES),test,test system,conditions,measurement,value
CC1(C)C(C=C(Cl)Cl)C1C(=O)OC(C#N)c1ccc(F)c(Oc2ccccc2)c1 (centres unmarked),refers to: CYP3A4,"human, age 1 year, recombinant human CYP3A4",0.1 µM,enzyme contribution to clearance,0.91%
C[C@]1(CO)Cc2ncn(-c3ccc(C#N)c(Cl)c3)c2C(=O)O1,,"healthy Japanese adults, plasma","3 mg once daily, multiple dose",Cmax at steady state,197 nM
Nc1ccn([C@@H]2O[C@H](CO)[C@@H](O)C2(F)F)c(=O)n1,,healthy tumour-free C57BL/6 mice,every 3 days,MTD,50 mg/kg
C[C@]1(O)C[C@@](N)(c2ccc(-c3nc4n(c3-c3ccccc3)COc3ccncc3-4)cc2)C1,,"human, advanced or metastatic solid tumours","dose not given, intermittent dose escalation total",patients with decreased appetite TEAE,42.9%
O[C@H]1CCCN[C@@H]1CCCn1cnc2c(Cl)c(Cl)ccc21,,"healthy volunteers, plasma","oral, 150 mg twice daily, alone","Cmax,ss geometric LS mean",265 ng/mL
O=C(O)CCCOc1ccc(F)cc1-c1cc(-c2ccccc2C(F)(F)F)n(-c2ccccc2)n1,,"Crl:CD(SD) rat, female, serum","intravenous, 25 µg/kg, 1 days post-dose",total protein,5.88 ± 0.29 g/dL
Cn1cncc1-c1c(F)cncc1NC(=O)c1c(N)nn2cc(F)cnc12,,human patients,"oral, 130 mg once daily",grade ≥3 lymphocyte decrease incidence,22%
CO[C@H]1C[C@@H]2CC[C@@H](C)[C@@](O)(O2)C(=O)C(=O)N2CCCC[C@H]2C(=O)O[C@H]([C@H](C)C[C@@H]2CC[C@@H](OC(=O)NCCOCCOCCOCCOCCOCCOCCOCCOCCC(=O)N3CCc4cc(Cn5nc(-c6ccc7oc(N)nc7c6)c6c(N)ncnc65)ccc4C3)[C@H](OC)C2)C[C@@H](O)[C@H](C)/C=C(\C)[C@@H](O)[C@@H](OC)C(=O)[C@H](C)C[C@H](C)/C=C/C=C/C=C/1C,,patients with advanced solid tumours,"intravenous, 1.6 mg/3 mg weekly, grade ≥3",incidence of Headache TEAE,0%
CC/C(=C(\c1ccccc1)c1ccc(OCCN(C)C)cc1)c1ccccc1,,"CD-1 mouse, male, plasma","intraperitoneal, 30 mg/kg",half-life,8.97 h
COc1ccnc(C(=O)N[C@H]2COC(=O)[C@H](Cc3ccccc3)[C@@H](OC(=O)C(C)C)[C@H](C)OC2=O)c1OCOC(=O)C(C)C,,"mouse, liver",,unscheduled DNA synthesis,negative
COc1cc2c(Oc3ccc4[nH]c(C)cc4c3F)ccnc2cc1OCC1(N)CC1,refers to: grade 3 hand-foot syndrome,paediatric high-risk refractory sarcoma,8 mg,incidence of adverse event,13.3%
COc1ccc(C[C@@H]2NC(=O)[C@H]([C@@H](C)O)NC(=O)[C@@H]3[C@@H]4CCN3C(=O)[C@@H]3Cc5cn(c6ccc(F)cc56)CCCCCCN(Cc5ccc(cc5)CCNC(=O)[C@]5(C)CCCN5C2=O)C(=O)CCC(=O)N[C@@H](C)C(=O)N[C@H](CNC(=O)CCCCC[N+](C)(C)C)C(=O)N[C@@H](Cc2cccc(c2)CNC(=O)CO4)C(=O)N3)cc1,refers to: vessel puncture site pain,human,dose not given,participants with adverse event,3.9%
CCCCCCC#Cc1cncc(-c2nnc(SCc3cc([N+](=O)[O-])cc([N+](=O)[O-])c3)n2C)c1,,human plasma,plasma stability,t1/2,> 8 h
Cn1ncc(-c2nc(N[C@H]3CC[C@H](N)CC3)ncc2Cl)c1CC1CC1,HPLC-MS/MS,"patients, plasma","oral, 5 mg, day 1",Cmax,10.7 ng/mL
